Measured values of several laboratories.
Protocols differ between the studies behind these lines.
SIGMAR1: Sigma non-opioid intracellular receptor 1 (SIGMAR1, Homo sapiens, UniProt Q99720)
Chain of UniProt Q99720 (whole entry, looked up): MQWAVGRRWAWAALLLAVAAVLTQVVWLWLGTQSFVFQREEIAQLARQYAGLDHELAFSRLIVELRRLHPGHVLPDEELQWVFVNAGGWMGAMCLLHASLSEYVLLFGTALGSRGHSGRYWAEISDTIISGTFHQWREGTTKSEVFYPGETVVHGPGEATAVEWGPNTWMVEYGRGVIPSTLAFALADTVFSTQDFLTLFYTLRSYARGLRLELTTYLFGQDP
Chain of UniProt P11802 (whole entry, looked up): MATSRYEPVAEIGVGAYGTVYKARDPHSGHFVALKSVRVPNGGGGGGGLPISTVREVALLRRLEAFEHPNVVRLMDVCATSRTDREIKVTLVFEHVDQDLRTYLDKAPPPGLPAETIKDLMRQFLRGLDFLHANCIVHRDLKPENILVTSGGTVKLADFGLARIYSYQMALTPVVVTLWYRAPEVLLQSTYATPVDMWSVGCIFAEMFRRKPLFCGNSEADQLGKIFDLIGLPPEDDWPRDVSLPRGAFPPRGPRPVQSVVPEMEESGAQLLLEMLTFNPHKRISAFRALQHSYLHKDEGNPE
Chain of UniProt Q0VDG4 (whole entry, looked up): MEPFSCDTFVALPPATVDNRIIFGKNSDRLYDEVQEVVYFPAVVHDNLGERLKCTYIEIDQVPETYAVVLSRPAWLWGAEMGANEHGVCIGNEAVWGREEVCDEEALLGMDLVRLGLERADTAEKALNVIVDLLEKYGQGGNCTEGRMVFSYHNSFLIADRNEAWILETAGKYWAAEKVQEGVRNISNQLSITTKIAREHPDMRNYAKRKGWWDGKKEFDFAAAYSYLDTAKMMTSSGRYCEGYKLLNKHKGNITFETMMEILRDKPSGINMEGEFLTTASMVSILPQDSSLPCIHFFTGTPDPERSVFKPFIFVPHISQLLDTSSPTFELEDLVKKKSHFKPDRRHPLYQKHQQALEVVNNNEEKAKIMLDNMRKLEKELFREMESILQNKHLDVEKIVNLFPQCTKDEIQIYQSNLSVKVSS
Chain of UniProt Q9Y2J8 (whole entry, looked up): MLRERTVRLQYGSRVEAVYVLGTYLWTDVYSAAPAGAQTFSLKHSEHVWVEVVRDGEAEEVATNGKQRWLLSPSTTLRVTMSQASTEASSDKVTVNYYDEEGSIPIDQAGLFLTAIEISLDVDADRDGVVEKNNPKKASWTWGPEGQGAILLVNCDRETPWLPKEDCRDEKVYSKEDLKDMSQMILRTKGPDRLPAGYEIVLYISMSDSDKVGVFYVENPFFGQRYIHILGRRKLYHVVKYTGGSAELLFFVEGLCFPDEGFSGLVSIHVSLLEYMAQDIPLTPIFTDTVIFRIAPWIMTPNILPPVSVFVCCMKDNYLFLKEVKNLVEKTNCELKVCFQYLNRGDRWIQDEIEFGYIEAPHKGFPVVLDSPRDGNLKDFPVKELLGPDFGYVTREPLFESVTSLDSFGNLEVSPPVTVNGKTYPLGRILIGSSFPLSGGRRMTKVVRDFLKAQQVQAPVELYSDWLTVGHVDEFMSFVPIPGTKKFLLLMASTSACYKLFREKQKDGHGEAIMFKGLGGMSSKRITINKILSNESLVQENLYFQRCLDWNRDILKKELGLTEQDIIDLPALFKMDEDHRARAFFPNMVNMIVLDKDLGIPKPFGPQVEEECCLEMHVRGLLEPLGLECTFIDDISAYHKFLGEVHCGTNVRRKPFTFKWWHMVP
Chain of UniProt P07947 (whole entry, looked up): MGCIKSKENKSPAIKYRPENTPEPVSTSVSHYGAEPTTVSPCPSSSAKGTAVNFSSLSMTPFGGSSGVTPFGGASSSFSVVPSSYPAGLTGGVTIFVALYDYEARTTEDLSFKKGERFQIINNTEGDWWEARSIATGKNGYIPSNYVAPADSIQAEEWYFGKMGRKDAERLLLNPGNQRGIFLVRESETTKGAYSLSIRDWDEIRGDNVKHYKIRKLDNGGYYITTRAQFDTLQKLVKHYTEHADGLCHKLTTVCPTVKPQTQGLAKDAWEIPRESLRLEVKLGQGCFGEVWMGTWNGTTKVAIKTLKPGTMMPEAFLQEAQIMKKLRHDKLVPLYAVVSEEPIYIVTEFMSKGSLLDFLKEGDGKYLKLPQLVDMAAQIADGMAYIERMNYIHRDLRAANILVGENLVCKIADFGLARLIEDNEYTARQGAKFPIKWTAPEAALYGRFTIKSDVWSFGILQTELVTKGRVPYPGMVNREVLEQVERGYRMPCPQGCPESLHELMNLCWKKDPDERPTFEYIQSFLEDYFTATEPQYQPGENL
Chain of UniProt P51451 (whole entry, looked up): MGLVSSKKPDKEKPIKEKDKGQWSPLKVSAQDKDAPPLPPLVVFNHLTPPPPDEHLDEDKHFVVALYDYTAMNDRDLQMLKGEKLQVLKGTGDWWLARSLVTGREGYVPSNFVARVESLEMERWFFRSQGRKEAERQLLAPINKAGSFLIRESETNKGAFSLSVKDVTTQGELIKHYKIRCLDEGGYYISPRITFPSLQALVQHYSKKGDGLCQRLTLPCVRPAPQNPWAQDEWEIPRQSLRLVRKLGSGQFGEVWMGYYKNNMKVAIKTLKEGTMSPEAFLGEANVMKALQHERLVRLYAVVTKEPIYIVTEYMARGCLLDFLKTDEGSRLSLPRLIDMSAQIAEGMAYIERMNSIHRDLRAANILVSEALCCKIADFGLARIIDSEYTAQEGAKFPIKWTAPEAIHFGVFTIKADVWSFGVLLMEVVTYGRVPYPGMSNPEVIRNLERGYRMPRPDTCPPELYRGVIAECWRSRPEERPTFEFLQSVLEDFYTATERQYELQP
Chain of UniProt P27815 (whole entry, looked up): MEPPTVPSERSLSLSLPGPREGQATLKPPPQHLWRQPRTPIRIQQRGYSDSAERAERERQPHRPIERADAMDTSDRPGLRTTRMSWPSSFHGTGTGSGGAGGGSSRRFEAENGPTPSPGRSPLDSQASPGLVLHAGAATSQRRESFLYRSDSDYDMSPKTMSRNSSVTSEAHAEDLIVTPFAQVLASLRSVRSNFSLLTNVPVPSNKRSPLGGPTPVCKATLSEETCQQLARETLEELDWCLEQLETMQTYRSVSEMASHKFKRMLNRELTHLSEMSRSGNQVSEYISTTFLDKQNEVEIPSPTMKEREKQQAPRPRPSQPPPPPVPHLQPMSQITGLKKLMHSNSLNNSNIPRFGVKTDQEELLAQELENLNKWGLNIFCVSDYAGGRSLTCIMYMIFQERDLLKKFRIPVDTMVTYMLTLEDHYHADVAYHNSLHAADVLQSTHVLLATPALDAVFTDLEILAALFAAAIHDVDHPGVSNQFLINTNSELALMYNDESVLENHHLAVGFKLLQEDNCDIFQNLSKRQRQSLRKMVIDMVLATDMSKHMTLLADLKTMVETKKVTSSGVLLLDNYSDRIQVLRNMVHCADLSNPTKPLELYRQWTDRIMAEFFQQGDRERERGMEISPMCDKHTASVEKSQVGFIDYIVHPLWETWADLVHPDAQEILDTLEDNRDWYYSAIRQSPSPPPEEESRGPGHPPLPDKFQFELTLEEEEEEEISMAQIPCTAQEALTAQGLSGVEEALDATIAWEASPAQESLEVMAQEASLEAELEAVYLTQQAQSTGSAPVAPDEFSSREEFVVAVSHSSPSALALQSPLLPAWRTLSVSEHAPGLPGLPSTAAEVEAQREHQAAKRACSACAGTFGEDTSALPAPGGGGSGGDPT

| Compound | target | test | system | setting | scale | selectivity ratio |
| --- | --- | --- | --- | --- | --- | --- |
| OC1Cc2ccccc2CC1N1CCC2(C=Cc3cc(F)ccc32)CC1 (racemic) | SIGMAR1 | – | rat liver (sigma2), human sigma1 | – | baseline: Ki sigma2 over Ki sigma1 | 11 |
| CC(=O)c1c(C)c2cnc(Nc3ccc(C4CCN(CCS(C)(=O)=O)CC4)cn3)nc2n(C2CCCC2)c1=O | Cyclin-dependent kinase 4 (CDK4, Homo sapiens, UniProt P11802) | inhibitor | – | – | baseline: CDK4 IC50 over CDK6 IC50 | 5.2 |
| Cc1ccc([C@H]2C[C@@H]2COc2cc(NCc3nnc(C)s3)nc(C)n2)nc1 | 3',5'-cyclic-AMP phosphodiesterase 4A, isoform PDE4A1 (PDE4A, Homo sapiens, UniProt P27815) | enzyme activity, inhibitor, IMAP fluorescence polarization | – | isoform PDE4A1 | baseline: Ki target over Ki PDE10A2 | 659000 fold |
| COc1cc2nccc(Oc3ccc(NC(=O)c4cc5c(n(-c6ccccc6)c4=O)CCCC5=O)nc3)c2cc1OC | Tyrosine-protein kinase Blk (BLK, Homo sapiens, UniProt P51451) | cell viability, CellTiter-Glo | Ba/F3 expressing recombinant kinase | – | baseline: BLK IC50 over AXL IC50 | > 100 |
| CCn1c(-c2nc3cc(C(=O)N4CCC[C@@H](N)C4)cc(OC)c3n2C)cc2cccnc21 | Protein-arginine deiminase type-2 (PADI2, Homo sapiens, UniProt Q9Y2J8) | – | – | – | baseline: Ki' PADI2 over Ki' PAD4 | 8 |
| OC1Cc2ccccc2CC1N1CCC2(C=Cc3ccc(F)cc32)CC1 (racemic) | SIGMAR1 | – | rat liver (sigma2), human sigma1 | – | baseline: Ki sigma2 over Ki sigma1 | 45 |
| NNc1ccc(F)cc1 | Secernin-3 (Homo sapiens, UniProt Q0VDG4) | gel-based ABPP | HEK-293T lysate | – | baseline: IC50 AMD1 over Secernin-3 | 45 fold |
| COc1ccc(F)cc1C(=O)NCc1ccc(-c2nn([C@@H](C)C(F)(F)F)c(N)c2C(N)=O)cc1 | Tyrosine-protein kinase Yes (YES1, Homo sapiens, UniProt P07947) | target engagement, NanoBRET | HEK293 | – | baseline: YES1 over BTK | > 7600 |
| Cc1ccc2c(c1)C1(C=C2)CCN(C2Cc3ccccc3CC2O)CC1 (racemic) | SIGMAR1 | – | rat liver (sigma2), human sigma1 | – | baseline: Ki sigma2 over Ki sigma1 | 120 |

A few entries again:
| Compound | target | test | system | setting | scale | selectivity ratio |
| --- | --- | --- | --- | --- | --- | --- |
| CC(=O)c1c(C)c2cnc(Nc3ccc(C4CCN(CCS(C)(=O)=O)CC4)cn3)nc2n(C2CCCC2)c1=O | Cyclin-dependent kinase 4 (CDK4, Homo sapiens, UniProt P11802) | inhibitor | – | – | baseline: CDK4 IC50 over CDK6 IC50 | 5.2 |
